Measurements from different studies.
Protocols differ between the studies behind these lines. ± marks the error that the study gave.

Structure (SMILES) | test | test system | conditions | aqueous solubility
CN(C)C/C=C/C(=O)Nc1cc2c(Nc3ccc(F)c(Cl)c3)ncnc2cc1O[C@H]1CCOC1 | – | water | 24 h | 35.4 ± 21.3 µM
C=CC(=O)NC1CCN(c2ncc3ncnc(Nc4ccc(Oc5ccc6c(c5)ncn6C)c(C)c4)c3n2)CC1 | shake flask | aqueous buffer | 24 h, 37 °C, across pH 4.5 to 7.4 | < 1 µg/mL
O=C1N(Cc2ccccc2Cl)c2ccccc2C12NN=C(c1ccccc1)S2 (stereo not shown) | – | aqueous medium | – | < 1000 µg/mL
O=[N+]([O-])c1cn2c(n1)OC[C@@H](OCc1ccc(N3CCCCC3)c(F)c1)C2 | – | aqueous buffer | pH 7.4 | 5.7 µg/mL
C[C@H](O)[C@H](O)[C@H]1CNc2nc(N)[nH]c(=O)c2N1 | – | – | estimated | ~20000 µg/mL
O=[N+]([O-])c1cn2c(n1)OC[C@@H](OCc1ccc(OC(F)(F)F)cc1)C2 | – | aqueous buffer | pH 7.4 | < 10 µg/mL
Cc1cc(-c2cn[nH]c2-c2cccc(OCc3cccc(C#N)c3)c2)cc(C)n1 | – | – | – | 128 µg/mL
O=C(Nc1c2c(cc3c1CCC3)CCC2)NS(=O)(=O)/C=C/c1nccs1 | – | ammonium acetate buffer | 24 h, pH 4.50, 37°C | < 5 µg/mL
O=[N+]([O-])c1cn2c(n1)OC[C@@H](OCc1ccc(N3CCSCC3)cc1)C2 | – | aqueous buffer | pH 7.4 | 7.7 µg/mL
CCCCCCCCCCCC1=C(O)C(=O)C=C(O)C1=O | – | – | pH 7 | < 250 µM

Repeated from above:
Structure (SMILES) | test | test system | conditions | aqueous solubility
O=C(Nc1c2c(cc3c1CCC3)CCC2)NS(=O)(=O)/C=C/c1nccs1 | – | ammonium acetate buffer | 24 h, pH 4.50, 37°C | < 5 µg/mL
